Assay results of several laboratories.
Each numbered part is a random draw from the data of one study; scales do not carry over between parts.

Sample 1 — method: protein binding microarray; molecule type: double-stranded DNA, one strand shown; matrix: in vitro; concentration: not given; reference: not given; reading: higher = stronger binding
Target: Histone acetyltransferase KAT6A, winged helix 2, GST fusion (KAT6A, Homo sapiens, UniProt Q92794, residues 85-181)
Notes: 8-mer, flanks averaged, mean of 2 arrays, mostly near background
Residues (chain): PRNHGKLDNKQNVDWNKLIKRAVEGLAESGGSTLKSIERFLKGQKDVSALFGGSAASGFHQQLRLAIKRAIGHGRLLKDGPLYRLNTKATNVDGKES
The E-score of `AGTATGTG` is reported as -0.0866.
`GTCCGGGA` has an E-score of 0.17.
The E-score of `TCAAGAGA` is reported as -0.124.
For `CGCGAACA`, the E-score was 0.187.
For `CACCACGA`, the E-score was 0.0783.
The E-score of `AATCCCTC` is reported as 0.0822.
With `GCGAAGAA` the E-score was 0.0957.
`CATCCTCG` has an E-score of 0.146.
`CTCGGCAA` has an E-score of 0.037.
`CCGGATTC` gave an E-score of 0.0956.
With `ATACCACA` the E-score was -0.0505.
`AGCCTCGA` gave an E-score of 0.0444.
For `GTAAGAAC`, the E-score was 0.107.
The E-score of `CGGCTACA` is reported as 0.0377.
For `AGGTATGC`, the E-score was 0.00599.
The E-score of `ACCTTATG` is reported as 0.00342.
`ATACATCG` has an E-score of -0.0272.
With `AGGTTTCG` the E-score was -0.0386.
`CTTAGTGA` has an E-score of -0.151.
The E-score of `ACGGCTAC` is reported as 0.0156.
For `CCATTAGC`, the E-score was -0.0776.
`CAAAGTGG` has an E-score of -0.007.
With `ATAGTGAT` the E-score was -0.101.
`GCAACCGC` gave an E-score of 0.279.
For `GGACACTA`, the E-score was 0.0229.

Sample 2 — method: universal PBM; molecule type: double-stranded DNA, one strand shown; matrix: in vitro; concentration: 600 nM; reading: higher = stronger binding
Target: Sal-like protein 4, full length isoform A (SALL4, Homo sapiens, UniProt Q9UJQ4, residues 1-1053)
Chain of UniProt Q9UJQ4 (whole entry, looked up): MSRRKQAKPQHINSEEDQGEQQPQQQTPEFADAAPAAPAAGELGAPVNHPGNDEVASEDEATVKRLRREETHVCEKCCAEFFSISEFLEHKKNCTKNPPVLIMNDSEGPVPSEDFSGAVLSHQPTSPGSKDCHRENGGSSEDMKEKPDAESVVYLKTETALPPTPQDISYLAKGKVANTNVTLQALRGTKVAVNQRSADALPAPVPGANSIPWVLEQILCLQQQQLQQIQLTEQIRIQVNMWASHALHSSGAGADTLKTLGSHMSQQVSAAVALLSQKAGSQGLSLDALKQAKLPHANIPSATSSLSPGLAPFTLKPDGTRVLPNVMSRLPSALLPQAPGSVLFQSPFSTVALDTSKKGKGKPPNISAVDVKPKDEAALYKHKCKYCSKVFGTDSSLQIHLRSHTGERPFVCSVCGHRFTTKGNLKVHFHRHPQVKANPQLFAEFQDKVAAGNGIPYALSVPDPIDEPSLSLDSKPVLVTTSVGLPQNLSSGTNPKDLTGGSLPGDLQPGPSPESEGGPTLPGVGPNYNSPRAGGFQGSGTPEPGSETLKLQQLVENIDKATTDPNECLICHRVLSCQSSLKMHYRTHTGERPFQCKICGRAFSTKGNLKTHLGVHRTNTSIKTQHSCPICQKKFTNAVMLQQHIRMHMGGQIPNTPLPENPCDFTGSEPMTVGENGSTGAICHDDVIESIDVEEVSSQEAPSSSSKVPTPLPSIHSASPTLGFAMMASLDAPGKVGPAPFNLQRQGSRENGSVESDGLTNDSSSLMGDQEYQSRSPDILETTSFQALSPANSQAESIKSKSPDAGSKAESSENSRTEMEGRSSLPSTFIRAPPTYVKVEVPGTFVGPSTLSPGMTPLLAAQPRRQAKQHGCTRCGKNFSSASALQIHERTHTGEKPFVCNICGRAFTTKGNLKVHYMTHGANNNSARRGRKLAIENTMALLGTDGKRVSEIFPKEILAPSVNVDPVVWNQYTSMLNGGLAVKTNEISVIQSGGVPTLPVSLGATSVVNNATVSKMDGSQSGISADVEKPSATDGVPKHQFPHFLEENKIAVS
Notes: 8-mer, flanks averaged, mean of replicates
`TACAGCTA` gave an E-score of -0.0355.
With `CGTTAAAA` the E-score was 0.145.
With `CACTTTTC` the E-score was 0.109.
`CGGCCTAA` has an E-score of -0.17.
The E-score of `CCCCTTGC` is reported as -0.354.
With `ATTAGAAC` the E-score was 0.263.
`GTAGTCAA` gave an E-score of 0.107.
With `ATAACCGA` the E-score was 0.229.
For `AGATCGGC`, the E-score was -0.273.
`GCAATAAA` has an E-score of 0.307.
With `AAACCGAG` the E-score was -0.0578.
With `GCTACGCA` the E-score was -0.138.
`ACCTTCTA` has an E-score of 0.0678.
`AGCCATGC` has an E-score of -0.0892.
`AGTTGGTG` has an E-score of -0.272.
With `AGCCGTAC` the E-score was -0.115.
The E-score of `TATTCCCA` is reported as 0.144.
The E-score of `GCTTAAAC` is reported as 0.0638.
`AAATCTTG` has an E-score of 0.156.
For `GATATTCC`, the E-score was 0.187.
With `CGGTACAC` the E-score was -0.248.
The E-score of `CGGCAACA` is reported as -0.0227.
The E-score of `GGGCTGAC` is reported as -0.268.
For `ACTCCAGA`, the E-score was -0.00279.

Sample 3 — method: RNA Bind-n-Seq; molecule type: RNA; matrix: in vitro; concentration: 365 nM; reference: no-protein control; reading: higher = stronger binding
Target: RNA binding protein fox-1 homolog 2, RRM domain, GST-SBP tag (RBFOX2, Homo sapiens, UniProt O43251-10, residues 100-194)
Notes: natural RNA segment, single round, ends assumed
Constant ends, left off below: GGGAGUUCUACAGUCCGACGAUC … UGGAAUUCUCGGGUGCCAA
Residues (chain): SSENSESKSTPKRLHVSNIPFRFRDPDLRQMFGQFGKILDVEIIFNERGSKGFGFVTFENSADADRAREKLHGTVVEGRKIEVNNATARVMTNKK
`UGAUUGGGCGCAACGAACUGCAUUUCUUUGGACUUCUGAAUCCAUGUUUGUGCUUUCUCUGGCCCGUGAACACCUCGGCGAUUCUGUUAGGGAUGGGAUGAGUGGGAGGA`: “RBNS enrichment (R)” 0.501.
For `AAAGGCUAGAAUUCAAGAACGGUCUUAACUGAACCCUCAUCAGAUCUGAAUUUAACAAAUGCUUAGUCUCAGCAGCCUCCGGGGGAAAAAAGCUUAGCCUAGCAGUCAGU`, “RBNS enrichment (R)” read 0.583.
Under “RBNS enrichment (R)”, `CCAGUUUGGUCUCAGGCAUAGCCUGAGCAGAUCUUAGUUUUGCCCCCACCACCAUAGUUUUGUGCUAUCCUAGUUUCUGUUAAGAUUGGUGCUAUCCAAUUCCCAUCACU` is recorded as 0.326.
For `AAGUUUGAAGAGCCAUUUUGGUAAACGGUUUUUAUUAAAGAUGCUAUGGAACAUAAAGUUGUAUUGCAUGCAAUUUGAAGUAACUUAUUUGACUAUGAAUGUUAUCGGAU`, “RBNS enrichment (R)” read 0.626.
`GAGGUCAGGGUCAAUGGGAAUCUGCUCGGACACUCAACAUGGGGGUGGGUGCACUCCUUGGAGGAGGAGGAACACGUUCAGGGGAUUGUGAGGUCUUGCACAAGCCACGU` — result for “RBNS enrichment (R)”: 0.939.
For `UUAAUGCUUAGGAAGCCCAUUUGCAAACACUCAGUGAAGAGACACUUAAGUUUAAAAUAAAGCUUUUUAUACUGUAGCUUGAACUGUUUACCAUACAUUCUUUUGUAGUA`, “RBNS enrichment (R)” read 0.544.
Under “RBNS enrichment (R)”, `UUGGGGGGCUGACACCCAGAGAACAAGGACACUCAGAUGGGAGUUGGUAGUACGUGGUACAGUGGCUUUUCUCUGUGGUCAUGUCUUAGGGGCAAAGGCGUGUGGAUGGU` is recorded as 0.945.
`CCCAUGGGUCCCUUACUAGAGAGGUUGAGUGAAUUUGCCUUCAGUUAACAUGGGACCUUCUGUUUAGCUUCCUCUUGCUUCCCAAAGAUUUUAAGCAUUUUGUAAAUGUA`: “RBNS enrichment (R)” 0.333.
For `GAAACUGUUUUUAUAGUUUUAAUCAGAGCUAUGCAUUUCAUACAGCUUUUUAAUUUACAAUGAAACAAAGAAACAAAUUCCUUUGACCAAAUUGCUUGUCUAUAGUUGUC`, “RBNS enrichment (R)” read 0.403.
`CUGCUCGGGCUGUUUGCUGUUGGCUGGUAAUAAUAUAUUUGAUUUAAAUGCUGUUGACUGUGCUAUUAACUGCUGCCGUCAGUAAACUCCAAAGAUCUUUUUGUUUUGGC` — result for “RBNS enrichment (R)”: 0.801.
For `CAAACCAGUGGGGGUUGGACAAUGAAUGUAGUUAACUGGUUCCUGCUCACACUCCAGAAUUAAAUUCUAUUGAAAAAGGAAAAUCAGCAAUUCAGCAAAAAAUAAAUAAA`, “RBNS enrichment (R)” read 0.448.
`GGCAGCUUUGACCACUAUGCAACGUACUACCGCUCCCCUCUCCUCCGCCACCCCCGCCGUGGGGCUCCGGAGGGGACCCAGCUCCUCUGAGCCAUACCGACCAUCGUCCA` — result for “RBNS enrichment (R)”: 0.304.

Sample 4 — method: RNA Bind-n-Seq; molecule type: RNA; matrix: in vitro; concentration: 100 nM; reference: input RNA pool; reading: higher = stronger binding
Target: RING finger protein unkempt homolog, zinc fingers 1-6, SBP tag (UNK, Homo sapiens, UniProt Q9C0B0, residues 30-357)
Chain of UniProt Q9C0B0 (30-357, looked up): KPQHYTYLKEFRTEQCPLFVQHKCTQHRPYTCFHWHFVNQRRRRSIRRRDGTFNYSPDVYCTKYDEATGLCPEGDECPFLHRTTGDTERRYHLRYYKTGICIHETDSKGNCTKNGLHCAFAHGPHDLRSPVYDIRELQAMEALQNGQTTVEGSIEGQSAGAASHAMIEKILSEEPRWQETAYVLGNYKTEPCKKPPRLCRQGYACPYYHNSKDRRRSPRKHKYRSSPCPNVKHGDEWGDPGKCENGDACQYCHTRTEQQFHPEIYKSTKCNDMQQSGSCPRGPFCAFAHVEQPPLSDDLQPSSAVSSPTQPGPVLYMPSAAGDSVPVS
Notes: RNA with constant flanks, vertebrate orthologous sites, ends assumed
Constant ends, left off below: GGGAGUUCUACAGUCCGACGAUC … CAACAGAGGAUUGAGCAUCA
The bound/input enrichment of `GAUUUGGACCUUGGAGCUGAACCAGGGAGCUAGCAAAAGUAAAGCAGACUUAUAAAAUUAUAGCUAUGUGCAGCUGCACAACACAGUCCUUCCACUAGCAGCUGUGUUAAAGUAUUUAUA` is reported as 0.804 ratio.
The bound/input enrichment of `UUACAAUCUUCUUAAACUGGUAUUUACGGACCAUAUGGAGCUUUUUUUUUUUUUUUACAGUUUAGCAUCUGGUUUCUACAUGGAAGACGACGAACUUUCAUGCUUUAUUGUUCAAUGUGG` is reported as 0.65 ratio.
With `UCCUAAAGCUUUGUGUUUGGCUGCACCUGCAUAAGCUGCUACAAAUAGAUAAAGAAUUCAUAGCCUGUAUCUAUCAUUUAGAUGCAUGGAAAAAUGGGCUUUGCACACAAUGGGUUUGAA` the bound/input enrichment was 0.75 ratio.
`AGGCGUUUACUGCUCAGGUUUAUUUUAAAUGACUAUCAGUCACAUCUAAUUUAUUAUGAAUAUGGUGGUCUUUAAAAUAUGUAUUAUUGAAAUAAUAGUCAAGUUUCUAAUAAUCUAAAC` gave a bound/input enrichment of 0.399 ratio.
For `GAGUUAGAAGAGUUAGCAUCUUUAUUUUUGUAUCAAAGAUAAAGGUUAUUUUGAAAUUAUUAGAGUUUUUACACAACUCUGCCGUUGUAAGCAAAUGGUCCGACCAUUGGGAUCCCCCCU`, the bound/input enrichment was 2.17 ratio.
`AUCCCUCAGUGACAGUAUGCCUUCAGUGGCUGAUUCCCACUCAAGUCAUUUCUCUGAAUUUAGUUGUUCUGACCUGGAAAGUAUGAAAACUUCCUGUAGUCAUGGUUCCAGUGAUUACCA` has a bound/input enrichment of 0.536 ratio.
For `GAUACUGAAUAGUAUUAAGCAUUUUCGUCUUCCUUUACCUUUGAUCCCCUUCUUAAUAUCCAGUCUACUUUUUAAAAUUUCAGACUUCACUGCUCUUUGAAUUGAUAAUUCCAAUUUUCA`, the bound/input enrichment was 0.361 ratio.
`CUCUAUGGGCCUCGCAGAGUUGAAAUAAUGGAAGAGGAAAGUGAACAGUAAUCUUCAUUUUAGUAUUUAUGCUUAGGUGUGAAAUAAAUGUUAUUUGUUGAUCAUUUCUAUAAUCCAGAG` gave a bound/input enrichment of 0.457 ratio.
`CCGAAAGGCCAAAUUCCCUCCUCCCUUCUACUGCUUCUACCAACUGGAAGCACAGAAAACUAGAAUUUCAUUUAUUUUGUUUUUAAAAAAUAUAUGUUGAUUUCUUGUAACAUCCAAUAG` has a bound/input enrichment of 0.461 ratio.
`AGGAAAUGCUUGCUGCAAACCCUCAGGAUCGUCCAGAUGCUUUUGAACUAGAACUCAGAUUAGUACAAAUUGCAUUUAAAGAUAGCAGCUGGGAAACGUGACACAUAUAUUGUUUGCAAA` gave a bound/input enrichment of 0.9 ratio.
With `UUACAGUCCUCUACUUAAACUGGUAUUUUCAAACAAUAGGAAGCUUUUUUUUUUUUACAGUUUAGUAUCUUGUUUCUACAUGGAAGACUAAACAUGCUUAUAGCUAAAUGUGGUCUUUGC` the bound/input enrichment was 0.769 ratio.

For quick reference, copied from above (sample 2):
For `AGATCGGC`, the E-score was -0.273.
`AAATCTTG` has an E-score of 0.156.
The E-score of `GCTTAAAC` is reported as 0.0638.
With `AGCCGTAC` the E-score was -0.115.
With `CGGTACAC` the E-score was -0.248.
The E-score of `GGGCTGAC` is reported as -0.268.
`GTAGTCAA` gave an E-score of 0.107.
